Assay results pooled from the literature.
Several values in a cell are separate wells, animals, samples, runs or records. Numbers after ± are the reported error.
CYP2C8: Cytochrome P450 2C8 (CYP2C8, Homo sapiens, UniProt P10632)
serine/threonine phosphatase Stp1: serine/threonine phosphatase Stp1 (Staphylococcus aureus, UniProt A0A0H2XF73)
Faah: Fatty-acid amide hydrolase 1 (Faah, Rattus norvegicus, UniProt P97612)
Histone acetyltransferase RTT109 with Vps75: Histone acetyltransferase RTT109, with Vps75 (Saccharomyces cerevisiae, UniProt Q07794)
BRD4 BD2: Bromodomain-containing protein 4, BD2 (BRD4, Homo sapiens, UniProt O60885)
LYN: Tyrosine-protein kinase Lyn (LYN, Homo sapiens, UniProt P07948)
FER: Receptor-like protein kinase FERONIA (FER, Arabidopsis thaliana, UniProt Q9SCZ4)
SIRT2: NAD-dependent protein deacetylase sirtuin-2 (SIRT2, Homo sapiens, UniProt Q8IXJ6)
UCHL1: Ubiquitin carboxyl-terminal hydrolase isozyme L1 (UCHL1, Homo sapiens, UniProt P09936)
BRD4 BD1: Bromodomain-containing protein 4, BD1 (BRD4, Homo sapiens, UniProt O60885)

SMILES | target or system | test | system | setting | scale | endpoint | result
Cc1nc(-c2cnc(NC(C)C)n(C)c2=O)ccc1Oc1ccnc(-c2cnn(C)c2)c1 | CYP2C8 | time-dependent inhibition, inhibitor | – | 30 min preincubation without NADPH | – | IC50 | 94 µM
O=c1c(O)c(-c2ccc(O)c(O)c2)oc2cc(O)ccc12 | serine/threonine phosphatase Stp1 | phosphatase activity, inhibitor | – | – | – | IC50 | > 349 µM
O=C(Nc1cnccc1Cl)N1CCN(Cc2ccc3c(c2)OC(F)(F)O3)CC1 | Faah | enzyme activity, inhibitor | rat brain membranes | 30 min preincubation | – | IC50 | 0.221 µM
O=C(Nc1ccccc1Cl)N1CCCN(c2nc(-c3ccccc3)ns2)CC1 | Histone acetyltransferase RTT109 with Vps75 | enzyme activity, inhibitor, HTS, CPM-based, dose response | – | – | – | IC50 | > 125 µM
Oc1ncnc2[nH]ncc12 | Toxoplasma gondii | parasite growth | HFF, bradyzoite, alkaline-induced | – | – | EC50 | 30 µM
O=C1CCC(=O)N1c1ccc(Br)cc1 | Histone acetyltransferase RTT109 with Vps75 | enzyme activity, inhibitor, HTS, CPM-based, dose response | – | – | – | IC50 | > 125 µM
Cc1ccc2[nH]nc(-c3nnc(Nc4ccc(Cl)c(Br)c4)s3)c2c1 | thymidine phosphorylase | enzyme activity, inhibitor, spectrophotometric | – | pH 7.5, 25 °C | – | IC50 | 17.3 ± 0.49 µM
COc1ccc2c(=O)[nH]c3c(nnn3Cc3ccc(C)cc3)c2c1 | PARP3 (Homo sapiens, UniProt Q9Y6F1) | – | – | – | – | IC50 | > 10 µM
CS(=O)(=O)c1ccc(-c2ccc(NC(=O)COc3ccccc3)cc2)nn1 | Catenin beta-1, with BCL9 HD2 (CTNNB1, Homo sapiens, UniProt P35222) | BCL9 binding, inhibitor, AlphaScreen | – | – | – | IC50 | 40 µM
CN(C)C(=O)c1cc2cnc(Nc3ccc(-c4ccc5c(=O)cc(N6CCOCC6)oc5c4)cc3)nc2n1C1CCCC1 | BRD4 BD2 | inhibitor | – | – | – | IC50 | > 10 µM
O=S(=O)(Nc1ccc(O)c(Br)c1)c1ccccc1 | Histone acetyltransferase RTT109 with Vps75 | enzyme activity, inhibitor, HTS, CPM-based, dose response | – | – | – | IC50 | > 125 µM
Cc1cnc(-c2ccc(-c3ccc(NC(=O)Nc4c(F)cc(F)cc4F)cc3F)c3c2C(=O)NC3)[nH]1 | LYN | enzyme activity, inhibitor | – | with: ATP at Km | – | IC50 | 0.002 µM
O=c1c(O)c(-c2ccc(O)cc2)oc2cc(O)cc(O)c12 | serine/threonine phosphatase Stp1 | enzyme activity, inhibitor | – | with: pNPP | – | IC50 | > 349 µM
Cc1ccc(NC(=O)c2ccc(C)c(C(F)(F)F)c2)cc1C#Cc1nn(C2CCC(O)CC2)c2ncnc(N)c12 (stereo not shown) | TNK2 (Homo sapiens, UniProt Q07912) | inhibitor, radiometric kinase | – | with: ATP 10 µM | – | IC50 | 0.175 µM
NC(=O)Nc1cc(-c2cccc(F)c2)sc1C(=O)N[C@H]1CCCNC1 | FER | inhibitor | – | – | – | IC50 | 0.08 µM
CN1CCN(c2ccc(Nc3ncc4cc(C#N)c(=O)n(C5CCCC5)c4n3)cc2)CC1 | STK25 (Homo sapiens, UniProt O00506) | – | – | – | – | IC50 | 4.91 µM
C=C(NC(=O)[C@H](CCCCNC(=S)NCCCCCCCCCCCC)NS(C)(=O)=O)C(=O)N[C@@H](CCCNC(=N)N)C(N)=O | SIRT2 | enzyme activity, inhibitor | – | – | – | IC50 | 0.18 ± 0.03 µM
CCCSc1nsc(NC(=O)c2cnc3ccccc3n2)n1 | Histone acetyltransferase RTT109 with Vps75 | enzyme activity, inhibitor, HTS, CPM-based, dose response | – | – | – | IC50 | > 125 µM
CCn1c(-c2nc3cc(C(=O)N4CCC[C@@H](N)C4)cc(OC)c3n2C)cc2cccnc21 | TACR1 (Homo sapiens, UniProt P25103) | intracellular calcium, antagonist, luminescence | – | – | – | IC50 | > 39.8 µM
CC(=O)Nc1nnc(N2CCN([C@@H](C)c3ccc4c(c3)OCO4)CC2)s1 | Beta-hexosaminidase subunit alpha (Homo sapiens, UniProt P06865) | enzyme activity, inhibitor | – | – | top concentration 30 µM | IC50 | > 30 µM
COc1cc(O)c(CC=C(C)C)c2c1C(=O)CC(c1ccc(O)cc1)O2 (stereo not shown) | CYP2C8 | enzyme activity, inhibitor | human liver microsomes | pH 7.4, with: amodiaquine | – | IC50 | 0.2 ± 0.1 µM
CC[C@@H]1[C@H](F)C(=O)N[C@@H]1COc1nccc2cc(C(N)=O)c(OC)cc12 | PTK2 (Homo sapiens, UniProt Q05397) | ATP-site binding, ActivX KiNativ profiling | THP-1 cell lysate | Lys1 FAK probe site | – | IC50 | > 5 µM
N#Cc1ccc([C@H]2CCc3cncn32)c(F)c1 | CYP2C8 | inhibitor, measured: paclitaxel 6α-hydroxylation | pooled human liver microsomes | pH 7.4, with: paclitaxel 10 µM | – | IC50 | ~100 µM
Cc1ccc(SC2=CS(=O)(=O)c3ccccc32)cc1 | Histone acetyltransferase RTT109 with Vps75 | enzyme activity, inhibitor, HTS, CPM-based, dose response | – | – | – | IC50 | > 125 µM
Cc1cc([C@@H](C)Nc2ccccc2C(=O)O)c2nc(N3CCC(F)(F)CC3)c(C#N)c(=O)n2c1 | Phosphatidylinositol 4,5-bisphosphate 3-kinase catalytic subunit alpha isoform, with p85 alpha (PIK3CA, Homo sapiens, UniProt P42336) | ADP-Glo | – | with: ATP 10 µM | – | IC50 | 1.12 µM
COc1cc(C=C(C#N)C(=O)Nc2c(C)cc(C)cc2C)cc(OC)c1 | UCHL1 | inhibitor, ubiquitin-rhodamine cleavage | – | 2 h preincubation | – | IC50 | > 200 µM

SMILES | target or system | test | system | setting | scale | endpoint | result
O=C(O)c1ccc2nc(-c3ccc(OCC(COc4ccc(-c5nc6ccc(C(=O)O)cc6[nH]5)cc4)(COc4ccc(-c5nc6ccc(C(=O)O)cc6[nH]5)cc4)COc4ccc(-c5nc6ccc(C(=O)O)cc6[nH]5)cc4)cc3)[nH]c2c1 | Beta-lactamase (Escherichia coli, UniProt Q8VNN1) | enzyme activity, inhibitor | – | – | – | IC50 | 37 ± 9.6 µM
COc1cc(/C=C2\CCCC(C3(O)C(=O)Nc4ccc(Cl)cc43)C2=O)cc(OC)c1OC (stereo not shown) | ERK | enzyme activity | – | – | – | IC50 | 14 µM
CN(C)C(=O)c1cc2cnc(Nc3cccc(-c4cccc5c(=O)cc(N6CCOCC6)oc45)c3)nc2n1C1CCCC1 | BRD4 BD2 | inhibitor | – | – | – | IC50 | > 10 µM
CN1C(=O)CCC(N2C(=O)c3cccc(NCCCCCCNC(=O)c4ccc(Oc5ccc(Cl)cc5NS(=O)(=O)c5ccc(Cl)c(C(F)(F)F)c5)cc4)c3C2=O)C1=O (stereo not shown) | Protein cereblon, with DDB1 (CRBN, Homo sapiens, UniProt Q96SW2) | binding, HTRF | – | – | – | IC50 | 1.56 µM
CN(C)C(=O)c1cc2cnc(Nc3ccc(-c4cccc5c(=O)cc(N6CCOCC6)oc45)cc3)nc2n1C1CCCC1 | BRD4 BD1 | inhibitor | – | – | – | IC50 | 0.154 µM
O=c1cc(-c2ccc(O)c(O)c2)oc2cc(O)cc(O)c12 | ACE (Oryctolagus cuniculus, UniProt P12822) | enzyme activity, inhibitor | methanol/water 50:50 | 2 h, pH 8.3, 37 °C, with: hippuryl-histidyl-leucine | – | IC50 | 54.2 ± 8.33 µM
NCCCCNC(=O)OCC1c2ccccc2-c2ccccc21 | IAPP (Homo sapiens, UniProt P10997) | ThT displacement, ThT fluorescence | – | pH 7.4, preformed target-ThT complex, with: 5 µM ThT | – | IC50 | > 150 µM
Cn1nc2c(=O)n(C3CC3)ccc2c1[C@](O)(c1cnc(C(F)(F)F)c(Cl)c1)C(F)(F)F | Dihydroorotate dehydrogenase (Canis lupus familiaris, UniProt A0A8I3MWX2) | enzyme activity, inhibitor, DCIP reduction | – | – | – | IC50 | > 30 µM
CN(C)C(=O)c1cc2cnc(Nc3ccc(-c4cccc5c(=O)cc(N6CCOCC6)oc45)cn3)nc2n1C1CCCC1 | BRD4 BD2 | inhibitor | – | – | – | IC50 | > 10 µM
C[C@H]1CN(C2COC2)CCN1c1ccc(Nc2cc(-c3ccnc(N4CCn5c(cc6c5CC(C)(C)C6)C4=O)c3CO)cn(C)c2=O)nc1 | LYN | – | – | – | – | IC50 | > 5 µM
O=C(Nc1cccnn1)N1CCC(=Cc2cccc(Oc3ccc(C(F)(F)F)cn3)c2)CC1 | Faah | enzyme activity, inhibitor | rat brain membranes | 5 min preincubation | – | IC50 | 0.0028 µM
CCN(c1ccccc1)S(=O)(=O)c1ccc(Cl)c(C(=O)Nc2ccccc2N2CCN(C(C)C)C2=O)c1 | N-myristoyltransferase (Cryptosporidium parvum, UniProt Q5CV46) | enzyme activity, inhibitor | – | – | – | IC50 | > 125 µM
C=CC(C)(C)c1cc(/C=C/C(=O)c2ccc(O)cc2)c(OC)cc1O | Histone-arginine methyltransferase CARM1 (Mus musculus, UniProt Q9WVG6) | methyltransferase activity, inhibitor | – | with: PABP1 substrate, [3H]AdoMet | – | IC50 | 28.4 µM and ~30 µM
Sc1ncnc2nc[nH]c12 | Histone acetyltransferase RTT109 with Vps75 | enzyme activity, inhibitor, HTS, CPM-based, dose response | – | – | – | IC50 | > 125 µM
Cc1ccc2[nH]nc(-c3nnc(Nc4ccc(C(F)(F)F)cc4)s3)c2c1 | thymidine phosphorylase | enzyme activity, inhibitor, spectrophotometric | – | pH 7.5, 25 °C | – | IC50 | 6.29 ± 0.38 µM
CN1CCN(c2cc(=O)c3ccc(Nc4ncc5cc(C(=O)N(C)C)n(C6CCCC6)c5n4)cc3o2)CC1 | BRD4 BD1 | inhibitor | – | – | – | IC50 | 0.817 µM
O=C1CC(Nc2ccccc2)C(=O)N1c1ccc(Br)cc1 (stereo not shown) | Histone acetyltransferase RTT109 with Vps75 | enzyme activity, inhibitor, HTS, CPM-based, dose response | – | – | – | IC50 | > 125 µM
N#CC(=Cc1ccncc1)C(=O)Nc1cccc(Cl)c1 | UCHL1 | inhibitor, ubiquitin-rhodamine cleavage | – | 2 h preincubation | – | IC50 | > 200 µM
Cc1cc(OC(C)C)ccc1C(=O)C(C)(C)NC(=O)c1sccc1C | succinate-cytochrome c oxidoreductase (Botrytis cinerea, UniProt A0A384J5E4+D2IH01+D2IH03) | succinate-cytochrome c reductase activity | Botrytis cinerea, mitochondrial fraction | 25 °C | – | IC50 | 0.00278 µM
C[n+]1cc2c3c(ccc2c2ccc4cc5c(cc4c21)OCO5)OCO3 | Toxoplasma gondii | bradyzoite growth | – | glutamine-induced bradyzoites, glucose-free medium | – | EC50 | 1.25 µM
CCCCCCCCCCCCNC(=S)NCCCC[C@H](NC(C)=O)C(=O)N[C@@H](C)C(=O)N[C@@H](CCCNC(=N)N)C(N)=O | SIRT2 | enzyme activity, inhibitor | – | – | – | IC50 | 0.23 ± 0.05 µM
O=C1C[C@@H](c2ccc(O[C@@H]3O[C@H](CO)[C@@H](O)[C@H](O)[C@H]3O)cc2)Oc2cc(O)ccc21 | serine/threonine phosphatase Stp1 | phosphatase activity, inhibitor | – | – | – | IC50 | > 239 µM
Cc1ccc(S(=O)(=O)/C=C/C#N)cc1 | OTUD7B (Homo sapiens, UniProt Q6GQQ9) | deubiquitinase activity, inhibitor, MALDI-TOF DUB | – | 30 °C, 35 min pre-incubation | – | IC50 | 1.17 µM
CCC(=O)Nc1nc(-c2ccccc2)ns1 | Histone acetyltransferase RTT109 with Vps75 | enzyme activity, inhibitor, HTS, CPM-based, dose response | – | – | – | IC50 | > 125 µM
COc1ccc(-c2cc(=O)c3ccc(Nc4ncc5cc(C(=O)N(C)C)n(C6CCCC6)c5n4)cc3o2)cc1 | BRD4 BD2 | inhibitor | – | – | – | IC50 | > 10 µM
COc1cc2c(Nc3ccc(Cl)c(Cl)c3F)ncnc2cc1OC[C@@H]1C[C@@H]2CN(C)C[C@@H]2C1 | FER | inhibitor | – | – | – | IC50 | 0.08 µM
